Assay results gathered from unrelated publications.
Each line is one published result; not all experiments were run side by side. Numbers after ± are the reported error.
CYP2C19: Cytochrome P450 2C19 (CYP2C19, Homo sapiens, UniProt P33261)
Sequence of UniProt P33261 (whole entry, looked up): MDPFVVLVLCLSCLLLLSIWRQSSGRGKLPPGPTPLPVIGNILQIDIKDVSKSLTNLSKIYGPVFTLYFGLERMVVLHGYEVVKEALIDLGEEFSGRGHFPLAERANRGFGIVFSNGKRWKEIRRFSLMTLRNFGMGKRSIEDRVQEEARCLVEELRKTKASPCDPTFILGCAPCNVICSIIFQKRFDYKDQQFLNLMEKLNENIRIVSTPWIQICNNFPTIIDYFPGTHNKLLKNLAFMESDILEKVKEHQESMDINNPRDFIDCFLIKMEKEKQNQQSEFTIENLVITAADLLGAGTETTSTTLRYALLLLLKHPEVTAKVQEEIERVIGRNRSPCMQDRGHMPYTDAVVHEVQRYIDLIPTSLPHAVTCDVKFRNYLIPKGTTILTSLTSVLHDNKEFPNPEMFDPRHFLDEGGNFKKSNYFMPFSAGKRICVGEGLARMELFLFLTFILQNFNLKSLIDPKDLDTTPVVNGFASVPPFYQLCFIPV

Structure (SMILES) | tested on | assay | test system | conditions | scale | measurement | result
CS(=O)(=O)Nc1ncn(-c2cc(F)c(COc3ccc(OS(=O)(=O)F)cc3)c(F)c2)n1 | CYP2C19 |  |  |  |  | IC50 | > 50 µM
COc1ccc2nc([S+]([O-])Cc3ncc(CO)c(OC)c3C)[nH]c2c1 (stereo not shown) | CYP2C19 |  | human healthy subjects, plasma | oral, 20 mg, alone, fed, geometric mean, added: midazolam 2 mg |  | Cmax | 112 ng/mL
COc1ccccc1-c1ccc(CN2CCCC(c3nc4ccc(C)cc4c(=O)[nH]3)C2)cc1 (stereo not shown) | Vero-E6 | CellTiter-Glo ATP |  | 72 h, first round 5-point | reference: DMSO 0%, hyamine -100%, more negative, more toxic | maximum response | -26.8%
CC(C)CC(=O)OC[C@H]1O[C@@](C#N)(c2ccc3c(N)ncnn23)[C@H](O)[C@@H]1O | CYP2C19 | metabolic stability | recombinant enzyme | 1 µM, 30 min |  | remaining compound | 83.6 ± 2.58%
N#Cc1ccc([C@H]2CCc3cncn32)c(F)c1 | CYP2C19 | inhibitor, item: S-mephenytoin 4'-hydroxylation | pooled human liver microsomes | pH 7.4, added: S-mephenytoin 15 µM |  | Ki | 2000 nM
Cc1cc(C)nc(Nc2ncc(C(=O)NCCc3c(C)[nH]c4ccccc34)cn2)c1 | CYP2C19 | recombinant enzyme phenotyping |  | 1 µM, 30 min |  | fraction metabolised | 0.3%
CN(C(=O)n1cnc(-c2ccc[n+]([O-])c2)c1)C1CCCCC1 | CYP2C19 | enzyme activity, inhibitor |  | 50 µM, added: 3-cyano-7-ethoxycoumarin substrate |  | inhibition | -1%
CCN(CC)CCCNC(=O)CSc1c2c(nc3cc(Cl)ccc13)CCCC2 | Vero-E6 | CellTiter-Glo ATP |  | concentration not given, 72 h, second round 5-point | reference: DMSO 0%, hyamine -100%, more negative, more toxic | cytotoxicity efficacy | 7.95%
COc1ccc2[nH]c([S+]([O-])Cc3ncc(C)c(OC)c3C)nc2c1 (stereo not shown) | CYP2C19 | item: 5-hydroxyomeprazole | human healthy subjects, plasma | oral, 20 mg, alone, fed, geometric mean, added: midazolam 2 mg |  | Cmax | 142 ng/mL
O=C(Nc1cnccc1Cl)N1CCN(Cc2ccc3c(c2)OC(F)(F)O3)CC1 | CYP2C19 | enzyme activity, inhibitor |  | 50 µM, added: 3-cyano-7-ethoxycoumarin substrate |  | inhibition | 58%

Some of these lines once more:
Structure (SMILES) | tested on | assay | test system | conditions | scale | measurement | result
O=C(Nc1cnccc1Cl)N1CCN(Cc2ccc3c(c2)OC(F)(F)O3)CC1 | CYP2C19 | enzyme activity, inhibitor |  | 50 µM, added: 3-cyano-7-ethoxycoumarin substrate |  | inhibition | 58%
